Results gathered from unrelated publications.
A part holds a random share of what one study measured.

Series 1
Target: Interferon regulatory factor 3, full length, phosphomimetic (IRF3, Homo sapiens, UniProt Q14653, residues 1-427, S386D/S396D/S398D/S402D/T404D/S405D)
Method: protein-binding microarray
Molecule type: double-stranded DNA, one strand shown
Medium: in vitro
Concentration: 2540 nM top
Notes: 60-bp whole probe
With: salmon DNA 0.4 mg/ml
Relative to: random background probes
Direction: higher = stronger binding
Constant ends, left off below: GCCTAGCAC … GTCTTGATTCGCTTGACGCTGCTG
Construct (chain): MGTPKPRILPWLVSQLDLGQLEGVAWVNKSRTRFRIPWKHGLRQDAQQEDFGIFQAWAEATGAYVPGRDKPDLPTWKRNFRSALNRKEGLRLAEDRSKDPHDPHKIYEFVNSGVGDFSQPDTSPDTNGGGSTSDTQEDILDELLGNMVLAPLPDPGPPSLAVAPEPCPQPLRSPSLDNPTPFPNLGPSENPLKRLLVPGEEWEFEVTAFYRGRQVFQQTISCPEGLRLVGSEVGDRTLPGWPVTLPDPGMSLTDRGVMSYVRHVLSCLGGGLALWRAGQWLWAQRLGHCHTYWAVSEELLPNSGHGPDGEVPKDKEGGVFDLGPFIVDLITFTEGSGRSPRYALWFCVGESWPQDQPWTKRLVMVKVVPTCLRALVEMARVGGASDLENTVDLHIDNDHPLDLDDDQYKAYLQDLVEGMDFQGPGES
Sequence | fitted relative affinity [z-score]
TTAGGTATCGCACTGGGTTAGTGCTAG | 0.585
AGAGCTCTGGCACCTCTAGACGTGCTA | -1.04
TTAGAACTGAGTTTCGCTTAGTGCTAG | 1.96
TTACGTATCGGTCTCGGTTAGTGCTAG | 4.36
TAATTTCCATTTTCTAAATTCGTGCTA | 6.86
TACGGTTTCGGTTCCGGGACGTGCTAG | 10.2
TTAGGTATCGCCTTTCGGTTAGTGCTA | 1.4
TTAGATATCAGGCTCGATTAGTGCTAG | 0.0278
GACGAACTGAGTTTCGAGATGTGCTAG | 1.41
GACAGTATCGACTTTCGGGACGTGCTA | 1.45
TTAGAATCCAGTTTCGATTAGTGCTAG | 4.13
TTTGATTCCAGTTTCGATTAGTGCTAG | 4.25
GAAGGACTGGACTTTCGGGACGTGCTA | -0.0522
TTAGAACTGGGGTATGGATTAGTGCTA | -0.673
GTGAGTCCCGAGAATGGTGTGGTGCTA | -1.23
TGCCCTCTCCATACTTCCCAGTGCTAG | 0.657

Series 2
Target: Histone acetyltransferase KAT6A, winged helix 2, GST fusion (KAT6A, Homo sapiens, UniProt Q92794, residues 85-181)
Method: protein binding microarray
Molecule type: double-stranded DNA, one strand shown
Medium: in vitro
Concentration: not given
Notes: 8-mer, flanks averaged, mean of 2 arrays, mostly near background
Relative to: not given
Direction: higher = stronger binding
Residues (chain): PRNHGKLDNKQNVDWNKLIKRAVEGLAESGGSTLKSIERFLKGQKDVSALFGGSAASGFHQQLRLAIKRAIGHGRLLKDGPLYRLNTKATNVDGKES
Sequence | E-score
AGTACAGC | 0.0405
CCCGGTTA | -0.115
CGTTGAGC | -0.0441
CGTACGTA | -0.298
AATATTCC | 0.284
ACGGCGAT | 0.205
CAAAGTAA | -0.00912
ACTTTATC | 0.119
ACTAGTCG | -0.226
CAGACTAG | -0.0929
CAAGCCTG | -0.123
GAACAAGA | -0.112
CGCTTGAG | 0.112
CGAGTACC | 0.0301
ATTGCAAT | -0.124
GGTTAGGA | -0.248
ACGCTACG | -0.0121
ACCGTCTA | -0.138
CCAACAAA | 0.127
ATACGGCG | -0.0279
CCAAGCCA | -0.0952
CTGATCGA | -0.00536
GACAATTA | 0.0406
GGAACAAA | 0.0982
CCTGGCGA | 0.134

Series 3
Target: Fragile X messenger ribonucleoprotein 1, C-terminal low-complexity region (Fmr1, Mus musculus, UniProt P35922)
Method: RNA Bind-n-Seq
Molecule type: RNA
Medium: in vitro
Concentration: 200 nM
Notes: whole 134-nt RNA, ends assumed
With: 150 mM LiCl
Relative to: input library
Direction: higher = stronger binding
Each molecule: 7-deaza-guanosine replaces G
Constant ends, left off below: GGGAGUUCUACAGUCCGACGAUC … UGGAAUUCUCGGGUGUCAAGG
Sequence | log2 enrichment
UAACUUUAGAGGAGGAUCUGAUGGAUAUGGCAGUGGACGUGGAUUUGGGGAUGGCUAUAAUGGGUAUGGAAGAGGACCUGGAGGUGGCAA | -0.0271
UCAAGUCCUGUGCUACACAUCGUAUGUACCGAAUCGGUUUUUGGUUUUUGGAGGAAAGUAUUAUGUUACGCCGUUCGGAUCUGCACUUCC | -0.31
UCCUGUGCUACACAUCGUAUGUACCGAAUCGGGGAAAAAGGGGAAAAAGGGAAAAAGGGAAAGUAUUAUGUUACGCCGUUCGGAUCUGCA | 0.3
CUGUGCUACACAUCGUAUGUACCGAAUCGGGAAAAAAAGGGAAAAAAAGGGGAAAAAAAGGAAAGUAUUAUGUUACGCCGUUCGGAUCUG | 0.28
CUAGAGAGCUGUAGUACACAUGGAUGAACGACGAGAAGAACAAAUUGUACAGUUACUGAAUUCUGUUCAAGCGAAGAAUGAUAAAGAGUC | -1.01
CCUCAAGUCCUGUGCUACACAUCGUAUGUACCGAAUCGGAAGGGAAGGAAGGAAAGUAUUAUGUUACGCCGUUCGGAUCUGCACUUCCAG | -1.57
GAGGAGAUAAUCUCGGAAAAGUUACGGAAACCUGGGAAGUCGGCGAAACCCUACGUUCGGGUGUUUUCGGAAGCAGCCGAAGCGGCCGCC | -1.32
GUCCUGUGCUACACAUCGUAUGUACCGAAUCGGGUUUUUGGGAAAAAAAGGGAAAGGGAAAGUAUUAUGUUACGCCGUUCGGAUCUGCAC | -1.88
ACCAUGCAGGUGGGCGUCUUUGGGAAGUGGGGCAAGGGGGGGAUAGGGAGGGGGGUAACACUUUGGGAACAGGUGGUCCCAGGUCGUUUC | 1.57
UAACUUUAGAGGAGGAUCUGAUGGGUAUGGCAGUGGACGUGGAUUUGGGGAUGGCUAUAAUGGGUAUGGAGGAGGACCUGGAGGUGGCAA | 0.607
UGGCCCUGGUGGCAUGCGGGGAGGAAGAGGUGGCCUCAUGGAUCGUGGUGGUCCCGGUGGAAUGUUCAGAGGUGGCAGUGGUGGAGACAG | -0.294

Series 4
Target: RNA binding protein fox-1 homolog 2, RRM domain, GST-SBP tag (RBFOX2, Homo sapiens, UniProt O43251-10, residues 100-194)
Method: RNA Bind-n-Seq
Molecule type: RNA
Medium: in vitro
Concentration: 365 nM
Notes: natural RNA segment, single round, ends assumed
Relative to: no-protein control
Direction: higher = stronger binding
Constant ends, left off below: GGGAGUUCUACAGUCCGACGAUC … UGGAAUUCUCGGGUGCCAA
Target sequence (chain): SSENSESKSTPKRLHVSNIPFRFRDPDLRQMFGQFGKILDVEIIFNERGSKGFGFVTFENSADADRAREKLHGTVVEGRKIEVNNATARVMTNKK
Sequence | RBNS enrichment (R)
UACUGCACCACCUUGAAAAUGUUGUUUCCAGUUUUAAAAUAAGCAAUAAAUAUUUGAAAUGCUUCUGAUUUUUCAUUUUCAUUUAAAAACAUUAAAUUAAAUGUAAUGAG | 0.974
UCAUCUCCUGGGGCCAGGACCUCCCUGCCCAGGCUUCAGCCUGACUCCAGUCCUUCCUUGAGUGUAUCCUGUGGCCUACAUGUGUCUUCAUCCUUCCCUAAUGCCGUCUU | 0.81
CUAUGCCUCAGAAACUUCCUGGGAGUAAAUAUGGGAACAACUUUUCUAUUAAUACAUCUAAAUUUUCUAGUAUAUCCUGACAUUUUCCAUUCCUGCUCUGAAGUCACUUU | 0.665
GGAGGCUGAGGCAGGAGAAUCUCAAGUUCAGGGCCAGCCUGGGCCACAUACUGAUACCCUGUCUCUCAAAGGGAGAAAAAUUACUUAGGUAUGUCAGCACUUUUGUCCUG | 0.476
UGGGGUUGGGGGUGGAGGUCUAGAGGUGAGCUCAGAAACCUACUGUUAACCAACACCCCCAAGUGACUGACACAGGUGGUCUAAAAAUUACUUUUCUAGAAACACCAUUC | 0.399
AAACACCUCCUUCUCUUACACCCUUCGAAAUGGGUACAAACUUAAUUCUUCUCAGAAACUGGAAGACAUUCCUCUGUGUUUGCCCCUUCCUGACCCAAGAGACACCCUAU | 0.473
UGAGCACCGUGAGUUUGAUCUCGAGAUGAUCAUGUUUGAGCGAUGUAAAGUGCCCAAGAUCCUGCACCCAUAUCUUGGAACUUAUCUUUGUUCUACAUCAUUCUCUCUUG | 0.453
GAGCUUCAUGUAGGUUUAAAAGUGUAUUCUGAGCCUGUAGAUGAUUAAUCAGGUUUUUAUUCAAUCAUAUAAAUGUAUUCCUUUGUAAUCAUUUUUGUUUAACUGAGGAU | 0.708
CCACGUAACUGGCUGCAGAGAAAUCUACCGAGCAAGGAAAAGGCACACACACACGUUUGCAGGGGUGUCUCGGUUUGCAUUUCUGUUGGAAUGAUCCGAACUGGACUCAC | 0.685
AGAAAUACUGCUCUGAAUAUUUUGUAAUAAAGGUCUUUGCACAUGUGACCACAUACGUGUUAGGAGGCUGCAUGCUCUGGAAGCCUGGACUCUAAGCUGGAGCUCUUGGA | 5.72
GCCGGAGACAGGGUCUGCUGGAGCUGGGAGACGGCGCUGCAGAUAGAUGGCUACAGGAGCUUUUGGACUCACAGCCUCUGCUCUAGAGGUGUUGUGUAUGGGCUGCUAAU | 0.287
CUGCCUAAAAAAAAAAAAAAAAAAAAAAAAAAAAAAAAAAAAUGCUAUAAAAUGGUGAAAGCUUCCUUCUAAACUGCCCCAAGUGUUGAAGUCUUCACUUUAUUUUGUUG | 2.41

Repeated from above (series 3):
Sequence | log2 enrichment
CCUCAAGUCCUGUGCUACACAUCGUAUGUACCGAAUCGGAAGGGAAGGAAGGAAAGUAUUAUGUUACGCCGUUCGGAUCUGCACUUCCAG | -1.57
CUAGAGAGCUGUAGUACACAUGGAUGAACGACGAGAAGAACAAAUUGUACAGUUACUGAAUUCUGUUCAAGCGAAGAAUGAUAAAGAGUC | -1.01
GUCCUGUGCUACACAUCGUAUGUACCGAAUCGGGUUUUUGGGAAAAAAAGGGAAAGGGAAAGUAUUAUGUUACGCCGUUCGGAUCUGCAC | -1.88
UAACUUUAGAGGAGGAUCUGAUGGGUAUGGCAGUGGACGUGGAUUUGGGGAUGGCUAUAAUGGGUAUGGAGGAGGACCUGGAGGUGGCAA | 0.607
UGGCCCUGGUGGCAUGCGGGGAGGAAGAGGUGGCCUCAUGGAUCGUGGUGGUCCCGGUGGAAUGUUCAGAGGUGGCAGUGGUGGAGACAG | -0.294
GAGGAGAUAAUCUCGGAAAAGUUACGGAAACCUGGGAAGUCGGCGAAACCCUACGUUCGGGUGUUUUCGGAAGCAGCCGAAGCGGCCGCC | -1.32
UCCUGUGCUACACAUCGUAUGUACCGAAUCGGGGAAAAAGGGGAAAAAGGGAAAAAGGGAAAGUAUUAUGUUACGCCGUUCGGAUCUGCA | 0.3
CUGUGCUACACAUCGUAUGUACCGAAUCGGGAAAAAAAGGGAAAAAAAGGGGAAAAAAAGGAAAGUAUUAUGUUACGCCGUUCGGAUCUG | 0.28
